Experimental data pooled from the literature.
Lines come from different studies, so protocols differ.
Technique: steady-state kinetics
B1: enzyme L163H/N249W (Thermobifida fusca, UniProt Q47RK4); chain MTDVYILDAVRTPFGRYGGALSGIRPDDLAAHVLRALAERSPGLDPAAVDDVFFGDANGAGEDNRNVARMAALLAGWPTSVPGVTLNRLCGSGMESVIAANRAIAVGDASLAVAGGVESMSRAPWVLPKPAQGFPTGHETLYSTTLGWRMVNPAMPEQWTVSHGESTEQVAATYGISRAEQDAFALRSHERAARAWAEGVFDAEITQIPGAELERDESIRETSAEKLAALKPAFRPDGTITAGNASPLWDGAAALLIGDAAAAERVGREPLARIVSRGVAAVDPDVFGIGPVQAAEIALRRAGIGWDDLSVVELNEAFAAQSLACLKLWPDLDPEIVNPNGGAIAIGHPLGASGARIVGTLAHELHRRGGGWGLAAICIGVGQGLAVVLHR
B2: STH1425 H227V (Symbiobacterium thermophilum, UniProt Q67PI3); chain MDKLRVAVVGYGNVGRYALEAVQAAPDMELVGVVRRKVLAATPPELTGVRVVTDISQLEGVQGALLCVPTRSVPEYAEAMLRRGIHTVDSYDIHGDLADLRRRLDPVAREHGAAAVISAGWDPGTDSIIRALLEFMAPKGITYTNFGPGMSMGHSVAVKAIPGVRDALSMTIPAGMGVHKRAVYVELEPGADFAEVERAIKTDPYFVRDETRVTQVESVSALMDVGVGVVMERKGVSGATHNQLFRFEMRINNPALTAQVMVAALRAAARQKPGCYTMIEIPVIDYLPGDREAWIRKLV
B3: enzyme H323A (Acetivibrio thermocellus, UniProt A3DJ38); chain MKLTIPELSLVVLIGSSGSGKSTFAKKHFKPTEVISSDFCRGLVSDDENDQTVTGAAFDVLHYIVSKRLQLGKLTVVDATNVQESARKPLIEIAKDYHCFPVAVVFNLPEKVCQERNKNRTDRQVEEYVIRKHTQQLKKSIKGLQREGFRYVYILNSPEEVEEVVFERQPLWNNKKDEHGPFDIIGDIHGCYDELKMLLEKLGYLIEEVEGGVGSGKYRVTHPEGRKVLFLGDLVDRGPKITEVLKLVMGMVKSGIALCVPGNHDVKLLRKLNGRDVQITHGLDRTLEQLAKEPQEFIEEVKAFIDGLVSHYVLDDGKLVVAAAGMKEEFQGRGSGKVREFALYGETTGETDEYGLPVRYDWASDYRGKALVVYGHTPQAEVLKVNNTINIDTGCVFGGKLTAYRYPEREIVDVKALKTYYEPAKPFLPKEDMAERFEARTDNDILDINDVLGKKIITTRLMSSITIHEENSIAALEVMSRFAADPHWLIYLPPTMSPCETSKKEGMLEHPIEAFEYFRTRGVGKVVCEQKHMGSRAVVIVCKDSQVAEKRFGVLDGTAGICYTRTGRHFFDDMQLEAELIDRVRKVLDKSGFWGDFNTDWVCLDCELMPWSAKAQKLLEEQYSAVGISGRVVLDEAVKLLKQASLNKTVSFDVSRQTSGKNADINELLQRFTERSEMMQKYVEAYRKYCWPVNSIDDLKLAPFHILATEGKVHSDKNHIWHMDTIAKYCTQDDSLIMATNHILVDVTDAESVDKGIKWWEDLTASGGEGMVVKPYDFIVKNGRELLQPAVKCRGREYLRIIYGPEYTMDENIERLRNRAVGKKRSLALREFSLGMEALERFVRNEPLYRVHECVFGVLALESEPVDPRL
B4: enzyme N249W (Thermobifida fusca, UniProt Q47RK4); chain MTDVYILDAVRTPFGRYGGALSGIRPDDLAAHVLRALAERSPGLDPAAVDDVFFGDANGAGEDNRNVARMAALLAGWPTSVPGVTLNRLCGSGMESVIAANRAIAVGDASLAVAGGVESMSRAPWVLPKPAQGFPTGHETLYSTTLGWRMVNPAMPEQWTVSLGESTEQVAATYGISRAEQDAFALRSHERAARAWAEGVFDAEITQIPGAELERDESIRETSAEKLAALKPAFRPDGTITAGNASPLWDGAAALLIGDAAAAERVGREPLARIVSRGVAAVDPDVFGIGPVQAAEIALRRAGIGWDDLSVVELNEAFAAQSLACLKLWPDLDPEIVNPNGGAIAIGHPLGASGARIVGTLAHELHRRGGGWGLAAICIGVGQGLAVVLHR
B5: STS (Homo sapiens, UniProt P08842); chain HAASRPNIILVMADDLGIGDPGCYGNKTIRTPNIDRLASGGVKLTQHLAASPLCTPSRAAFMTGRYPVRSGMASWSRTGVFLFTASSGGLPTDEITFAKLLKDQGYSTALIGKWHLGMSCHSKTDFCHHPLHHGFNYFYGISLTNLRDCKPGEGSVFTTGFKRLVFLPLQIVGVTLLTLAALNCLGLLHVPLGVFFSLLFLAALILTLFLGFLHYFRPLNCFMMRNYEIIQQPMSYDNLTQRLTVEAAQFIQRNTETPFLLVLSYLHVHTALFSSKDFAGKSQHGVYGDAVEEMDWSVGQILNLLDELRLANDTLIYFTSDQGAHVEEVSSKGEIHGGSNGIYKGGKANNWEGGIRVPGILRWPRVIQAGQKIDEPTSNMDIFPTVAKLAGAPLPEDRIIDGRDLMPLLEGKSQRSDHEFLFHYCNAYLNAVRWHPQNSTSIWKAFFFTPNFNPVGSNGCFATHVCFCFGSYVTHHDPPLLFDISKDPRERNPLTPASEPRFYEILKVMQEAADRHTQTLPEVPDQFSWNNFLWKPWLQLCCPSTGLSCQCDREKQDKRLSR
B6: nitrilase Y142F (Rhodococcus rhodochrous, UniProt A4LA85); chain MVEYTNTFKVAAVQAQPVWFDAAKTVDKTVSIIAEAARNGCELVAFPEVFIPGYPYHIWVDSPLAGMAKFAVRYHENSLTMDSPHVQRLLDAARDHNIAVVVGISERDGGSLYMTQLIIDADGQLVARRRKLKPTHVERSVFGEGNGSDISVYDMPFARLGALNCWEHFQTLTKYAMYSMHEQVHVASWPGMSLYQPEVPAFGVDAQLTATRMYALEGQTFVVCTTQVVTPEAHEFFCENEEQRKLIGRGGGFARIIGPDGRDLATPLAEDEEGILYADIDLSAITLAKQAADPVGHYSRPDVLSLNFNQRRTTPVNTPLSTIHATHTFVPQFGALDGVRELNGADEQRALPSTHSDETDRATASI
B7: NADP-dependent secondary alcohol dehydrogenase (Trichomonas vaginalis, UniProt A2DJ40); chain MTFELPKTMKAFAMRKIGEVGWIEKPVPECGPNDAICRPLALAPCTSDIHTVWAGAIGERHDMILGHEAVGQVVKIGSEVKNLKVGDKVLVPAVTPDWGSEAAQEGFPAHSGGMLGGWKFSNFKDGVFAEYFHVNEADANLAKLPEGLTPRDVIMCSDMMTTGFHGAELAEVKLGDIVVVIGIGPVGLMSVRGAALMGASRIFAVGSRPHCCDTAVQYGATDIINYKNGDIVEQILKATGGKGVDRVIIAGGDVHTFAQAIKMIRAGGVIGNVNYLGEGEMIDVPRVEWGVGMGHKFIHGGLTPGGALRMEKMANLIKYKKVDPTKLITHEFKGLEKVEDALMLMKDKPVDLIKPVVLIEYNDKL
B8: nitrilase (Rhodococcus rhodochrous, UniProt A4LA85); chain MVEYTNTFKVAAVQAQPVWFDAAKTVDKTVSIIAEAARNGCELVAFPEVFIPGYPYHIWVDSPLAGMAKFAVRYHENSLTMDSPHVQRLLDAARDHNIAVVVGISERDGGSLYMTQLIIDADGQLVARRRKLKPTHVERSVYGEGNGSDISVYDMPFARLGALNCWEHFQTLTKYAMYSMHEQVHVASWPGMSLYQPEVPAFGVDAQLTATRMYALEGQTFVVCTTQVVTPEAHEFFCENEEQRKLIGRGGGFARIIGPDGRDLATPLAEDEEGILYADIDLSAITLAKQAADPVGHYSRPDVLSLNFNQRRTTPVNTPLSTIHATHTFVPQFGALDGVRELNGADEQRALPSTHSDETDRATASI
B9: CPB2 (Homo sapiens, UniProt Q96IY4); chain ASASYYEQYHSLNEIYSWIEFITERHPDMLTKIHIGSSFEKYPLYVLKVSGKEQAAKNAIWIDCGIHAREWISPAFCLWFIGHITQFYGIIGQYTNLLRLVDFYVMPVVNVDGYDYSWKKNRMWRKNRSFYANNHCIGTDLNRNFASKHWCEEGASSSSCSETYCGLYPESEPEVKAVASFLRRNINQIKAYISMHSYSQHIVFPYSYTRSKSKDHEELSLVASEAVRAIEKISKNTRYTHGHGSETLYLAPGGGDDWIYDLGIKYSFTIELRDTGTYGFLLPERYIKPTCREAFAAVSKIAWHVIRNV
Chain of UniProt Q7V6D4 (whole entry, looked up): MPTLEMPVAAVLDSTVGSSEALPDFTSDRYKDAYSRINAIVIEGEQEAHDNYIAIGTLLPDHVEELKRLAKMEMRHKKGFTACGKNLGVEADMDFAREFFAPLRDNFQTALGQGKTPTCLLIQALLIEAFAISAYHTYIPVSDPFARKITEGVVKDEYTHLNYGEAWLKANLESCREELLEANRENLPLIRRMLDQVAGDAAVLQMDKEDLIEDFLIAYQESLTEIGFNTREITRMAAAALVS
Chain of UniProt D2D3B2 (whole entry, looked up): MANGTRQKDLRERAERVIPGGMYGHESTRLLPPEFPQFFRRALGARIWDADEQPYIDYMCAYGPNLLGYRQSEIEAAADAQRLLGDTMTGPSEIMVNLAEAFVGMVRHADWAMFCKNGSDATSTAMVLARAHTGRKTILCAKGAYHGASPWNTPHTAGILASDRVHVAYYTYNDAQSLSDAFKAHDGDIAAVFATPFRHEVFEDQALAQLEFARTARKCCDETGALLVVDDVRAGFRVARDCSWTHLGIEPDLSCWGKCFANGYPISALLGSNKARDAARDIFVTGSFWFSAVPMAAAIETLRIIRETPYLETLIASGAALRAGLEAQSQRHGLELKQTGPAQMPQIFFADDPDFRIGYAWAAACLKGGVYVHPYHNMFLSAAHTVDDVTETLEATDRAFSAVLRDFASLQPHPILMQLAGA
Chain of UniProt Q06528 (whole entry, looked up): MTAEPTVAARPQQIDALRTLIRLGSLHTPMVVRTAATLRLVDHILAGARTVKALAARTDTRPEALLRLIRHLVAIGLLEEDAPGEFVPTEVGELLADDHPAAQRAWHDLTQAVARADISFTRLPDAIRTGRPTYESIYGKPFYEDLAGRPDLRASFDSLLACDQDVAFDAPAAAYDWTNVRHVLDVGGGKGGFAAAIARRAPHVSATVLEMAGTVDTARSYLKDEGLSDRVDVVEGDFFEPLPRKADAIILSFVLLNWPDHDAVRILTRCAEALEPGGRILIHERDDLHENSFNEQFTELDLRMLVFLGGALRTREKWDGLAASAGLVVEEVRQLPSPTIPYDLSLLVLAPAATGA

`B1 (enzyme L163H/N249W)` gave a Km of 1140 µM (CC(C)(COP(=O)(O)OP(=O)(O)OC[C@H]1O[C@@H](n2cnc3c(N)ncnc32)[C@H](O)[C@@H]1OP(=O)(O)O)[C@@H](O)C(=O)NCCC(=O)NCCSC(=O)CCC(=O)O; pH 7.4, 37 °C).
`pvdF (Pseudomonas aeruginosa, UniProt Q9I184)` has a Km of 60 µM (Nc1nc(O)c2cc(CN(C=O)c3ccc(C(=O)N[C@@H](CCC(=O)O)C(=O)O)cc3)ccc2n1; pH 7.4, 25 °C).
For `OXA-48 (Klebsiella pneumoniae, UniProt Q6XEC0)`, the Km was 4.1 µM (C[C@@H](O)[C@H]1C(=O)N2C(C(=O)O)=C(S[C@@H]3CN[C@H](CNS(N)(=O)=O)C3)[C@H](C)[C@H]12; pH 7.2, 30 °C).
With `B2 (STH1425 H227V)` the Km was 12500 µM (O=C(O)C(=O)Cc1ccccc1; pH 9, 30 °C, reductive amination, with: NH4Cl 200 mM, NADPH 0.5 mM).
`B3 (enzyme H323A)` has a Km of 32000 µM (Nc1ncnc2c1ncn2[C@@H]1O[C@H](CO)[C@H]2OP(=O)(O)O[C@H]21; pH 7.5, 45 °C).
The Km of `protein (Prochlorococcus marinus, UniProt Q7V6D4)` is reported as 10100 µM (CCCC=O; pH 7.2, 37 °C, apparent, micro-aerobic).
The Km of `B4 (enzyme N249W)` is reported as 1370 µM (CC(C)(COP(=O)(O)OP(=O)(O)OC[C@H]1O[C@@H](n2cnc3c(N)ncnc32)[C@H](O)[C@@H]1OP(=O)(O)O)[C@@H](O)C(=O)NCCC(=O)NCCSC(=O)CCC(=O)O; pH 7.4, 37 °C).
For `B5 (STS)`, the Km was 2.85 µM ([H][C@@]12CC=C3C[C@@H](OS(=O)(=O)O)CC[C@]3(C)[C@@]1([H])CC[C@]1(C)C(=O)CC[C@@]21[H]; pH 7, 37 °C, not purified).
`enzyme (Sphingopyxis macrogoltabida, UniProt D2D3B2)` has a Km of 1.1 µM (CCCC[C@@H](C)[C@@H](O)[C@@H](O)C[C@@H](C)C[C@H](O)CCCC[C@@H](O)C[C@H](O)[C@H](C)N; pH 8, 35 °C, apparent).
`B6 (nitrilase Y142F)` has a Km of 1190 µM (Cc1cccc(C#N)c1; pH 7.5, 25 °C).
For `azu N30H/N36H/Q34D (Pseudomonas aeruginosa)`, the Km was 36000 µM (O=NO; pH 6.35).
With `B7` the Km was 169 µM (CC(C)=O; pH 6.25, 37 °C, with: NADPH 200 µM).
The Km of `B8 (nitrilase)` is reported as 1240 µM (N#CCCCC#N; pH 7.5, 25 °C).
For `gliT (Aspergillus fumigatus, UniProt E9RAH5)`, the Km was 198 µM (CC(=O)NC1=C(S)/C(=C\S)NC1=O; pH 6.5).
For `dnrK (Streptomyces peucetius, UniProt Q06528)`, the Km was 106 µM (O=[N+]([O-])c1ccc(O)c(Cl)c1; pH 8, 37 °C).
With `B9 (CPB2)` the Km was 123 µM (C[C@H](NC(=O)[C@H](Cc1ccccc1)NC(=O)[C@H](CCC(N)=O)NC(=O)CNC(=O)[C@@H]1CCCN1C(=O)[C@H](Cc1ccccc1)NC(=O)[C@@H](N)Cc1ccc(O)cc1)C(=O)N[C@@H](Cc1ccccc1)C(=O)N[C@@H](CO)C(=O)N[C@@H](CCCCN)C(=O)O; 37 °C).

For quick reference, copied from above:
`B1 (enzyme L163H/N249W)` gave a Km of 1140 µM (CC(C)(COP(=O)(O)OP(=O)(O)OC[C@H]1O[C@@H](n2cnc3c(N)ncnc32)[C@H](O)[C@@H]1OP(=O)(O)O)[C@@H](O)C(=O)NCCC(=O)NCCSC(=O)CCC(=O)O; pH 7.4, 37 °C).
`pvdF (Pseudomonas aeruginosa, UniProt Q9I184)` has a Km of 60 µM (Nc1nc(O)c2cc(CN(C=O)c3ccc(C(=O)N[C@@H](CCC(=O)O)C(=O)O)cc3)ccc2n1; pH 7.4, 25 °C).
